{"data": "Measurements from different studies", "Substance-P receptor": "Substance-P receptor (Cavia porcellus, UniProt P30547)", "Melanocortin receptor 3": "Melanocortin receptor 3 (Mus musculus, UniProt P33033)", "gpmI": "2,3-bisphosphoglycerate-independent phosphoglycerate mutase (gpmI, Mycoplasma pneumoniae, UniProt P75167)", "note": "Compare with care: the assays were run in different laboratories. Numbers after ± are the reported error.", "sequence of UniProt P75167 (whole entry, looked up)": "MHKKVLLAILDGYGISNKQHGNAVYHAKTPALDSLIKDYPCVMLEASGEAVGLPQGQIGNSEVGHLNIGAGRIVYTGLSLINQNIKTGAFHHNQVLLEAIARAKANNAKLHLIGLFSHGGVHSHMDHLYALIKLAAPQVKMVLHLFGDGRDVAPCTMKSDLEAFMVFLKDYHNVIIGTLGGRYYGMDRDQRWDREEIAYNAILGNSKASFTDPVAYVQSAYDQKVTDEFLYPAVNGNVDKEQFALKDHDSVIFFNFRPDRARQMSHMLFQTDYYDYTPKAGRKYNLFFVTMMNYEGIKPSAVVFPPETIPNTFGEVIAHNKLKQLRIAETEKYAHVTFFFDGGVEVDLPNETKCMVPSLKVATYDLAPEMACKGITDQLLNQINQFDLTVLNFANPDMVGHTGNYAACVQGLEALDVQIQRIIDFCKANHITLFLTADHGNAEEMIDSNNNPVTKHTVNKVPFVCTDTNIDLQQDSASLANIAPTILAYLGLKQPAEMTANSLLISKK", "sequence of UniProt P30547 (whole entry, looked up)": "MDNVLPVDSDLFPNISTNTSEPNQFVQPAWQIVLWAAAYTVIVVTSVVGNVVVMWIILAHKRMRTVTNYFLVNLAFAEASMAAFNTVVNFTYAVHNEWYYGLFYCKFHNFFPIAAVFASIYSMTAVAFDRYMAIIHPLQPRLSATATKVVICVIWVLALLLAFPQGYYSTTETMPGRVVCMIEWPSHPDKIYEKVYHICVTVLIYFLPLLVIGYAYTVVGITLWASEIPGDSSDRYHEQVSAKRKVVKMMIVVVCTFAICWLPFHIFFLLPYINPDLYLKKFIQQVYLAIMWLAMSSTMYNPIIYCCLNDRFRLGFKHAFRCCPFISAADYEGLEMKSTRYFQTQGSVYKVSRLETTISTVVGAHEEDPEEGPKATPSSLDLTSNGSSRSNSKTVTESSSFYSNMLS", "sequence of UniProt P33033 (whole entry, looked up)": "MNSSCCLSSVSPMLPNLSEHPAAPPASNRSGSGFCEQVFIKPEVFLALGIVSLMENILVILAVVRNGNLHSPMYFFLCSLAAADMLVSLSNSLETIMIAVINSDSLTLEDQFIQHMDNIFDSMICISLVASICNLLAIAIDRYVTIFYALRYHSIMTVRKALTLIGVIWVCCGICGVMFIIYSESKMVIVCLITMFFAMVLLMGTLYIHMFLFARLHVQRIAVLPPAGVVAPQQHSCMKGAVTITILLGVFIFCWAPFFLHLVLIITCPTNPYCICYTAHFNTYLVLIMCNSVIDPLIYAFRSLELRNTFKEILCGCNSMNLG", "sequence of UniProt P02750 (whole entry, looked up)": "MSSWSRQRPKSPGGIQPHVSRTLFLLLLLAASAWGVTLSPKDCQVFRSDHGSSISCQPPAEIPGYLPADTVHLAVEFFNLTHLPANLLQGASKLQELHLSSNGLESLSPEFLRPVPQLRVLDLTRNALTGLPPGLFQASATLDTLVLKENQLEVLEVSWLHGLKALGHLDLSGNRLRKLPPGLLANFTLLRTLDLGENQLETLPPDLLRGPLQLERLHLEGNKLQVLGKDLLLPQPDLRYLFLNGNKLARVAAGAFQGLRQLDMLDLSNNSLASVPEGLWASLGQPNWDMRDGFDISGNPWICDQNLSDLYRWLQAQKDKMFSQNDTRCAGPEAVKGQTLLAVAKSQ", "sequence of UniProt P54764 (whole entry, looked up)": "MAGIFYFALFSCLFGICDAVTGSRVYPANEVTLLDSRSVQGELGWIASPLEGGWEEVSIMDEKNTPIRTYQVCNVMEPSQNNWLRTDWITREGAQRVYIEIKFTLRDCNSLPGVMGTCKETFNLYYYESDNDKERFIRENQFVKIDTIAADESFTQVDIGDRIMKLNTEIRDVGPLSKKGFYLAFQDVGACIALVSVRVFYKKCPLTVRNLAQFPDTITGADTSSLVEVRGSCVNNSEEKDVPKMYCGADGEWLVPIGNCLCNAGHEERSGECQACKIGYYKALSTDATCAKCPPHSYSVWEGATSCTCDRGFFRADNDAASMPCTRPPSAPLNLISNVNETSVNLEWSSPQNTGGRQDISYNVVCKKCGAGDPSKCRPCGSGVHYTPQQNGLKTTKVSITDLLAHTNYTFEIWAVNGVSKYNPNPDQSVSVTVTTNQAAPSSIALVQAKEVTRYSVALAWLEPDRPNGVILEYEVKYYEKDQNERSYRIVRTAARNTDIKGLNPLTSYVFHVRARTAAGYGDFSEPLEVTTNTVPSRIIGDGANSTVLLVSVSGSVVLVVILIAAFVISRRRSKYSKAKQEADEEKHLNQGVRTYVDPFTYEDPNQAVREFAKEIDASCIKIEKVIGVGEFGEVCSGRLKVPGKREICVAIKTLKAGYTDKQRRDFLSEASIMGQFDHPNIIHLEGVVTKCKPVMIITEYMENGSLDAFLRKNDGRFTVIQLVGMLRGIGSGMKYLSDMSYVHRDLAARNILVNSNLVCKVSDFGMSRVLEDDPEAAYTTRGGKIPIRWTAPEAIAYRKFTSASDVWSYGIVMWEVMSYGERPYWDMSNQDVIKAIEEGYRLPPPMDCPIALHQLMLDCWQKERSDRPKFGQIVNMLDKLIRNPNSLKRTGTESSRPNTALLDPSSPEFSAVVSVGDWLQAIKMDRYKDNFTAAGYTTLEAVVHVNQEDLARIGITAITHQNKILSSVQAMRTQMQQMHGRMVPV", "sequence of UniProt P41149 (whole entry, unmodified, looked up)": "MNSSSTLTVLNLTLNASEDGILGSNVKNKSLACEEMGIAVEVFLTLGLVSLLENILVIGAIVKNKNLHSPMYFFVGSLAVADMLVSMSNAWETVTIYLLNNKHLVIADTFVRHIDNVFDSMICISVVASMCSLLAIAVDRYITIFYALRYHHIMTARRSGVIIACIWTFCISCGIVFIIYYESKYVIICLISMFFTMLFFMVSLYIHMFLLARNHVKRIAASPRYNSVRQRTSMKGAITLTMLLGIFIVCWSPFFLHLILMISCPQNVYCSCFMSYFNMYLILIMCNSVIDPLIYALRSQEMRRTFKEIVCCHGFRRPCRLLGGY"}
{"Structure (SMILES)": "CNC(=O)C1CCN(c2ccccc2NC(=O)c2ccc(-c3cc(O)ccc3C)c(C)n2)CC1", "target": "Ephrin type-A receptor 4 (EPHA4, Homo sapiens, UniProt P54764)", "test": "enzyme activity, inhibitor", "quantity": "Ki", "value": "0.38 nM"}
{"Structure (SMILES)": "CC(C)C[C@H](NC(=O)[C@@H]1CCCN1C(=O)[C@H](CO[C@@H]1O[C@H](CO)[C@@H](O)[C@H](O)[C@H]1O)NC(=O)[C@H](Cc1ccccc1)NC(=O)CNC(=O)[C@@H](C)NC(=O)[C@@H](N)Cc1ccc(O)cc1)C(=O)N[C@@H](Cc1c[nH]c2ccccc12)C(=O)NCc1cc(C(F)(F)F)cc(C(F)(F)F)c1", "target": "Substance-P receptor", "test": "tissue contraction, antagonist", "quantity": "Kb", "value": "2.8 nM"}
{"Structure (SMILES)": "C[C@@H]1NC(=O)[C@H](CC(N)=O)N2C[C@H](Cc3c[nH]c4ccccc34)NC(=O)[C@H](CSCC2=O)NC(=O)[C@H](CCCNC(=N)N)NC(=O)[C@@H](Cc2ccccc2)NC(=O)[C@H](Cc2c[nH]cn2)NC(=O)[C@@H](NC(=O)[C@@H](N)Cc2ccc(O)cc2)CSSC[C@@H](C(=O)N[C@@H](Cc2ccc(O)cc2)C(N)=O)NC(=O)[C@H](Cc2ccccc2)NC1=O", "target": "Melanocortin receptor 5 (Mus musculus, UniProt P41149)", "test": "reporter gene, agonist", "quantity": "EC50", "value": "11.9 nM"}
{"Structure (SMILES)": "CC(=O)N[C@@H](CCCNC(=N)N)C(=O)N[C@@H](CCCNC(=N)N)C(=O)N[C@@H](C(=O)N1Cc2ccccc2C[C@H]1C(N)=O)[C@@H](c1ccccc1)c1c[nH]c2ccccc12", "target": "Melanocortin receptor 3", "test": "cAMP, agonist, AlphaScreen", "quantity": "EC50", "value": "800 nM"}
{"Structure (SMILES)": "CC(C)[C@@H]1NC(=O)[C@H](CCC(N)=O)NC(=O)[C@@H](Cc2ccc(O)cc2)NC(=O)CSC[C@@H](C(N)=O)NC(=O)[C@H](CC(=O)O)NC(=O)[C@H](CCC(=O)O)NC(=O)[C@H](Cc2c[nH]c3ccccc23)NC(=O)[C@@H]2CCCN2C(=O)[C@H](CO)NC(=O)[C@H](C)NC(=O)[C@H](Cc2c[nH]c3ccccc23)NC(=O)[C@H](Cc2c[nH]c3ccccc23)NC(=O)[C@H](C(C)C)NC(=O)[C@H]([C@@H](C)O)NC1=O", "target": "gpmI", "test": "biochemical", "quantity": "AC50", "value": "162 nM"}
{"Structure (SMILES)": "CC(=O)N[C@H]1[C@@H](O[C@H](C)[C@H](NC(=O)[C@H](CO)NC(=O)CNC(=O)[C@@H]2CCCN2C(=O)[C@H](C)NC(=O)[C@@H]2CCCN2C(=O)[C@@H](N)CCCNC(=N)N)C(=O)N[C@@H](C)C(=O)N2CCC[C@H]2C(=O)N2CCC[C@H]2C(=O)N[C@@H](C)C(=O)N[C@@H](Cc2c[nH]cn2)C(=O)NCC(=O)O)O[C@H](CO)[C@H](O)[C@@H]1O", "target": "anti-MUC1 Fab 16 A W34F mutant, murine", "test": "SPR", "how to read": "baseline: peptide KD over Glyco-T KD", "quantity": "KD ratio", "value": "2.8 fold"}
{"Structure (SMILES)": "COc1ccc(C[C@H]2C(=O)N[C@@H](CC(N)=O)C(=O)N[C@@H](CC(=O)O)C(=O)N[C@@H](CO)C(=O)NCC(=O)N[C@@H](Cc3c[nH]c4ccccc34)C(=O)N(C)[C@@H](Cc3ccc(O)cc3)C(=O)N[C@@H](CC(N)=O)C(=O)N[C@@H]([C@@H](C)O)C(=O)N(C)[C@@H](Cc3ccccc3)C(=O)N[C@H](C(N)=O)CSCC(=O)N[C@@H](Cc3ccc(O)cc3)C(=O)N2C)cc1", "target": "gpmI", "test": "biochemical", "quantity": "AC50", "value": "42700 nM"}
{"Structure (SMILES)": "CC(=O)N[C@@H](CCCNC(=N)N)C(=O)N[C@@H](CCCNC(=N)N)C(=O)N[C@H](Cc1ccc(I)cc1)C(=O)N[C@H](C(N)=O)[C@H](c1ccccc1)c1c[nH]c2ccccc12", "target": "Melanocortin receptor 3", "test": "cAMP, agonist, AlphaScreen", "quantity": "EC50", "value": "570 nM"}
{"Structure (SMILES)": "CC[C@H](C)[C@H](NC(=O)[C@H](CCCNC(=N)N)NC(=O)[C@H](Cc1c[nH]cn1)NC(=O)[C@H](CCCCN)NC(=O)[C@H](C)NC(=O)[C@H](CO)NC(=O)[C@H](Cc1ccc(O)cc1)NC(=O)[C@H](CO)NC(=O)[C@H](CCC(=O)O)NC(=O)CNC(=O)CNC(=O)CCC(=O)Nc1cccc2c1CN(C1CCC(=O)NC1=O)C2=O)C(=O)N[C@@H](CCSC)C(=O)N[C@@H](CC(C)C)C(=O)N[C@H](C(=O)O)[C@@H](C)O (stereo partly shown)", "target": "Leucine-rich alpha-2-glycoprotein (LRG1, Homo sapiens, UniProt P02750)", "test": "degrader, Western blot", "test system": "HK-2", "conditions": "12 h", "quantity": "DC50", "value": "8380 nM"}
{"Structure (SMILES)": "CCCC[C@H]1C(=O)N2CCC[C@H]2C(=O)N[C@H](C(N)=O)CSCC(=O)N[C@@H](Cc2ccc(O)cc2)C(=O)N(C)[C@@H](Cc2ccc(OC)cc2)C(=O)N[C@@H](CCCNC(=N)N)C(=O)N(C)[C@@H](Cc2ccccc2)C(=O)N[C@@H](CC(=O)O)C(=O)N(C)[C@@H](CO)C(=O)N(C)[C@@H](Cc2ccc(O)cc2)C(=O)N[C@@H](CCC(N)=O)C(=O)N[C@@H](CO)C(=O)N(C)[C@@H](CO)C(=O)N(C)[C@@H](Cc2ccc(OC)cc2)C(=O)N[C@@H](C(C)C)C(=O)N(C)[C@@H](Cc2ccc(O)cc2)C(=O)N1C", "target": "gpmI", "test": "biochemical", "quantity": "AC50", "value": "1450 nM"}
{"Structure (SMILES)": "Cc1cc(O)cc(C)c1C[C@H](N)C(=O)N[C@H](C)C(=O)NCC(=O)N[C@@H](Cc1ccc(Br)cc1)C(=O)N1CCC[C@H]1C(=O)N[C@@H](CC(C)C)C(=O)N[C@@H](Cc1c[nH]c2ccccc12)C(=O)NCc1cc(C(F)(F)F)cc(C(F)(F)F)c1", "target": "Substance-P receptor", "test": "antagonist", "test system": "guinea pig ileum LMMP", "quantity": "Kb", "value": "23 ± 8.9 nM"}
{"Structure (SMILES)": "COc1ccc(C[C@@H]2NC(=O)[C@H](C)NC(=O)[C@H](Cc3ccc(O)cc3)NC(=O)[C@H](CO)NC(=O)[C@H](CC(=O)O)NC(=O)[C@@H](Cc3ccc(O)cc3)NC(=O)CSC[C@@H](C(N)=O)NC(=O)[C@H](Cc3c[nH]c4ccccc34)NC(=O)[C@H](Cc3ccc(O)cc3)NC(=O)[C@H](Cc3c[nH]cn3)NC(=O)[C@H](CC(N)=O)NC(=O)[C@H](Cc3ccc(O)cc3)NC(=O)CNC(=O)[C@H](CC(N)=O)NC(=O)[C@H](Cc3ccccc3)NC(=O)[C@H](Cc3ccc(O)cc3)NC2=O)cc1", "target": "gpmI", "test": "biochemical", "quantity": "AC50", "value": "> 10000 nM"}
{"Structure (SMILES)": "Cl.Cl.Cl.Cl.Cl.Cl.Cl.Cl.Cl.Cl.Cl.Cl.NC[C@@H]1O[C@H](O[C@H]2[C@@H](O)[C@H](O[C@@H]3[C@@H](O)[C@H](N)C[C@H](N)[C@H]3O[C@H]3O[C@H](CN)[C@@H](O)[C@H](O)[C@H]3N)O[C@@H]2Cn2cc(CCCCCCc3cn(C[C@H]4O[C@@H](O[C@@H]5[C@@H](O)[C@H](N)C[C@H](N)[C@H]5O[C@H]5O[C@H](CN)[C@@H](O)[C@H](O)[C@H]5N)[C@H](O)[C@@H]4O[C@H]4O[C@@H](CN)[C@@H](O)[C@H](O)[C@H]4N)nn3)nn2)[C@H](N)[C@@H](O)[C@@H]1O", "target": "HIV-1 TAR RNA", "test": "RNA binding, ethidium bromide displacement", "conditions": "pH 6.8, TAR RNA 200 nM per strand, with: ethidium bromide 5 µM", "quantity": "binding constant", "value": "6.6e+07 M⁻¹"}
{"note": "Excerpt of the above:"}
{"Structure (SMILES)": "COc1ccc(C[C@@H]2NC(=O)[C@H](C)NC(=O)[C@H](Cc3ccc(O)cc3)NC(=O)[C@H](CO)NC(=O)[C@H](CC(=O)O)NC(=O)[C@@H](Cc3ccc(O)cc3)NC(=O)CSC[C@@H](C(N)=O)NC(=O)[C@H](Cc3c[nH]c4ccccc34)NC(=O)[C@H](Cc3ccc(O)cc3)NC(=O)[C@H](Cc3c[nH]cn3)NC(=O)[C@H](CC(N)=O)NC(=O)[C@H](Cc3ccc(O)cc3)NC(=O)CNC(=O)[C@H](CC(N)=O)NC(=O)[C@H](Cc3ccccc3)NC(=O)[C@H](Cc3ccc(O)cc3)NC2=O)cc1", "target": "gpmI", "test": "biochemical", "quantity": "AC50", "value": "> 10000 nM"}
